Results gathered from unrelated publications.
Each numbered part is a random draw from the data of one study; scales do not carry over between parts. Positions count from the first letter of the parent shown.
UniProt P51812, sequence (whole entry, looked up): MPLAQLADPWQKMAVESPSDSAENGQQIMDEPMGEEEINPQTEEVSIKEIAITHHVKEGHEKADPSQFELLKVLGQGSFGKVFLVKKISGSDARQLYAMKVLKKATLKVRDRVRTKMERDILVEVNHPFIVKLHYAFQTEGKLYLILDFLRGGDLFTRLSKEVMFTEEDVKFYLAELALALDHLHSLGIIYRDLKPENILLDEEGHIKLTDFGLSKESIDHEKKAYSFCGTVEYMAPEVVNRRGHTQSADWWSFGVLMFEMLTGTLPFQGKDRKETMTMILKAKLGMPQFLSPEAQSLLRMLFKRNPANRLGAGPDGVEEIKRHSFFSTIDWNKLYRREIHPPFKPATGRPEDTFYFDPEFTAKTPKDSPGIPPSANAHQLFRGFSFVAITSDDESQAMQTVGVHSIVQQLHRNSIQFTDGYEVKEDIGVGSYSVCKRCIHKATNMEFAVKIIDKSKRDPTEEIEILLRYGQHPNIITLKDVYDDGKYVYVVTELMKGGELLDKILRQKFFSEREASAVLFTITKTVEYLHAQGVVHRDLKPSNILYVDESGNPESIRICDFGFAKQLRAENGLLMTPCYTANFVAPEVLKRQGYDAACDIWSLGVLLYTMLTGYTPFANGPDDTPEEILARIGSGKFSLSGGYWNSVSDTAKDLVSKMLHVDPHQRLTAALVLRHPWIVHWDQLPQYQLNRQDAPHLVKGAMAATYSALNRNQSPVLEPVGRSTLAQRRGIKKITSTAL
UniProt Q9H0K1, sequence (whole entry, looked up): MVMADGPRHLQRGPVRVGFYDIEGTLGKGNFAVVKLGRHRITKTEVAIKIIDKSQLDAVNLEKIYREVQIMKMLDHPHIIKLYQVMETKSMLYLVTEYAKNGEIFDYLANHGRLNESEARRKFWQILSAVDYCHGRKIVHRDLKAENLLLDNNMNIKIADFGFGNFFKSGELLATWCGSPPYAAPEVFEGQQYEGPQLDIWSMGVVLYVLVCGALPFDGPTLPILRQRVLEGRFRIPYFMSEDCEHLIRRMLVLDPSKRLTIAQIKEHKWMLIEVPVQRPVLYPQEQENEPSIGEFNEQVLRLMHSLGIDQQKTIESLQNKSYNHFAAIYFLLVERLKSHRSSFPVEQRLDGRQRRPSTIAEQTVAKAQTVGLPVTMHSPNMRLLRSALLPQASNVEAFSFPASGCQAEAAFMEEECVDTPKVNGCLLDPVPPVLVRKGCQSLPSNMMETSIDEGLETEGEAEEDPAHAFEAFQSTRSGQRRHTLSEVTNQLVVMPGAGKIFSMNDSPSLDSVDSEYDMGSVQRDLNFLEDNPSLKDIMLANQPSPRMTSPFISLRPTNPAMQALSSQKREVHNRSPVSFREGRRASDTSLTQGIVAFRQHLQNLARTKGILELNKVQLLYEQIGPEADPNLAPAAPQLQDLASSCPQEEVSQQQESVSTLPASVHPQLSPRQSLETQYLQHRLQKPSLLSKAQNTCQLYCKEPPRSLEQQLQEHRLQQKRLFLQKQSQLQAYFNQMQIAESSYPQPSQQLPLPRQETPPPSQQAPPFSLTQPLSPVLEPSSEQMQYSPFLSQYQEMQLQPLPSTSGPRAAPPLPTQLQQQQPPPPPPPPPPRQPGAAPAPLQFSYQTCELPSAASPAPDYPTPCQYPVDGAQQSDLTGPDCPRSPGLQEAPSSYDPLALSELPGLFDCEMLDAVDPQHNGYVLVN
UniProt P49760, sequence (whole entry, looked up): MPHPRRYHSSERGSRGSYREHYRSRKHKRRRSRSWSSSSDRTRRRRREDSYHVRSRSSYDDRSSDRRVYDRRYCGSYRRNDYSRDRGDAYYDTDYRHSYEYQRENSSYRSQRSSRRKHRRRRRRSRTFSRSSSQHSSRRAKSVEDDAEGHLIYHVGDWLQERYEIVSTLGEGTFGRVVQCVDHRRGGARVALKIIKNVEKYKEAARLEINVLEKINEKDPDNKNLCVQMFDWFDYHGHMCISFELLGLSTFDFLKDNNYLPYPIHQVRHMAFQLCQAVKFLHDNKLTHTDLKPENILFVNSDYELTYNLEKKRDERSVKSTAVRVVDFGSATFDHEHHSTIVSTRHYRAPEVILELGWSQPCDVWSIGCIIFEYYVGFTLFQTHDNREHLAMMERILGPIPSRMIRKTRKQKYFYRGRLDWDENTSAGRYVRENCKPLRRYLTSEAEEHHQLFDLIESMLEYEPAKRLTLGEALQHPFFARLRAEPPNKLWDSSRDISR
UniProt P42680, sequence (whole entry, looked up): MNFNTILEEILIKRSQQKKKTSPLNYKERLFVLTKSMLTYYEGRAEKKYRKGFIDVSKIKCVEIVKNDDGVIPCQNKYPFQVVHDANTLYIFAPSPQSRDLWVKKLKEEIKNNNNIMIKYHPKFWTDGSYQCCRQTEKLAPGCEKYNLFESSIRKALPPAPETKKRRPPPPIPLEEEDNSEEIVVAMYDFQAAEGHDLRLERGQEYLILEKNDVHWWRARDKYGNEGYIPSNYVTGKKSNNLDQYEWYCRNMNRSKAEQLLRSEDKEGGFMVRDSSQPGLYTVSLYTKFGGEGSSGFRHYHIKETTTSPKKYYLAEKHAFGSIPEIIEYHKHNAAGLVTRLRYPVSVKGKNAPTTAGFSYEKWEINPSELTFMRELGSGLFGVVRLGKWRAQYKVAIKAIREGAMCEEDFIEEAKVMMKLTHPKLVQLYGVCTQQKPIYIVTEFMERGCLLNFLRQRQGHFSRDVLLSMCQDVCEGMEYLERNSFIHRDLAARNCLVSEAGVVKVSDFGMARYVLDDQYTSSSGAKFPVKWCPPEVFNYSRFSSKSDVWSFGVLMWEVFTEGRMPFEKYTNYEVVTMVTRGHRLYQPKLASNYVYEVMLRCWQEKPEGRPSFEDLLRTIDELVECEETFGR
UniProt Q9Y243, sequence (whole entry, looked up): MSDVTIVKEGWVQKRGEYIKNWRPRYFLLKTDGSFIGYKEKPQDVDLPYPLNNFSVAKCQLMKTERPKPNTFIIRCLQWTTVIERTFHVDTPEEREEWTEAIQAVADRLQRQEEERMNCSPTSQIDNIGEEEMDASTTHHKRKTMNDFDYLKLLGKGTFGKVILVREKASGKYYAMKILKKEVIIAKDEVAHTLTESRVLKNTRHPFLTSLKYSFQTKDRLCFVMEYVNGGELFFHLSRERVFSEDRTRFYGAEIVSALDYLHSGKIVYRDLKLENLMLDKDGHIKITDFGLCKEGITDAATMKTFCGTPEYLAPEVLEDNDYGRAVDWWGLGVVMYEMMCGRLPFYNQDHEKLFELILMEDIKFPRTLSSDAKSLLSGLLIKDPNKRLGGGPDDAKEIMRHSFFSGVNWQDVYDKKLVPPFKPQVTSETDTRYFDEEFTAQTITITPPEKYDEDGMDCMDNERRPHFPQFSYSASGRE
UniProt Q06418, sequence (whole entry, looked up): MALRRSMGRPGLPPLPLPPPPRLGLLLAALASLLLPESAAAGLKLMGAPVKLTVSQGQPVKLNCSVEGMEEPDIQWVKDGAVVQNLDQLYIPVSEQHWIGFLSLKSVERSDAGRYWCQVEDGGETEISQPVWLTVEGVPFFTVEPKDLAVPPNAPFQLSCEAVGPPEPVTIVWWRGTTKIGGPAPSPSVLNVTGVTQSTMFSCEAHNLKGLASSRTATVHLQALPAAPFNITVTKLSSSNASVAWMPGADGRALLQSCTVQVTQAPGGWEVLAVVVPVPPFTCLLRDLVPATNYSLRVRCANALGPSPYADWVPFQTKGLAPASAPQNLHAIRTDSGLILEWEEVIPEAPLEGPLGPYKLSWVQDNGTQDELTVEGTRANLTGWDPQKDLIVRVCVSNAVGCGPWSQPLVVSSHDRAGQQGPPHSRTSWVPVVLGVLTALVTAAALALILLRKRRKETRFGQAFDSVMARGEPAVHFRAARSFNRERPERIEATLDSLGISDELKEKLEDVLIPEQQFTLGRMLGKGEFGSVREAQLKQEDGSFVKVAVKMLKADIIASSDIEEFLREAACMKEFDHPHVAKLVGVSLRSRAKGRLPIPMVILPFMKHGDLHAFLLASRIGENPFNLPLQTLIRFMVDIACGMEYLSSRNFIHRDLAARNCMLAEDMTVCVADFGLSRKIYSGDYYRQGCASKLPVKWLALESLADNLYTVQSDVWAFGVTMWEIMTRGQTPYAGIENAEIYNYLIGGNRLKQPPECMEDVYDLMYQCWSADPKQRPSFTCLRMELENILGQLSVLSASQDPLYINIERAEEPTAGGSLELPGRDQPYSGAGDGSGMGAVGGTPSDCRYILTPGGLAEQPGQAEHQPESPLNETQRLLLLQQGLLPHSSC
UniProt Q8N5S9, sequence (whole entry, looked up): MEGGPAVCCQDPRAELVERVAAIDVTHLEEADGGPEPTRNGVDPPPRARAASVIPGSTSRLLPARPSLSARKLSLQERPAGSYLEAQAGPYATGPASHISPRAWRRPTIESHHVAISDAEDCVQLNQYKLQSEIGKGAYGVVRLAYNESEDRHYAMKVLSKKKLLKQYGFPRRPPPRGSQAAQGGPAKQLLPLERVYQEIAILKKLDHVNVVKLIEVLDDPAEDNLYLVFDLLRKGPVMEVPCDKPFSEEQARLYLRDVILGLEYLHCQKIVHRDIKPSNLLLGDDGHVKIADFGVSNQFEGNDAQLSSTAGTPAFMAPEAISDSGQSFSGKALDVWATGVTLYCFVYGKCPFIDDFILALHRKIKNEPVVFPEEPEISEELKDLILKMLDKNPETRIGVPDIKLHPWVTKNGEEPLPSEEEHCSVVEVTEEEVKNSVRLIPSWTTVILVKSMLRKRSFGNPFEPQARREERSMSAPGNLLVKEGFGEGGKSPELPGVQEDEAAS
UniProt P50613, sequence (whole entry, looked up): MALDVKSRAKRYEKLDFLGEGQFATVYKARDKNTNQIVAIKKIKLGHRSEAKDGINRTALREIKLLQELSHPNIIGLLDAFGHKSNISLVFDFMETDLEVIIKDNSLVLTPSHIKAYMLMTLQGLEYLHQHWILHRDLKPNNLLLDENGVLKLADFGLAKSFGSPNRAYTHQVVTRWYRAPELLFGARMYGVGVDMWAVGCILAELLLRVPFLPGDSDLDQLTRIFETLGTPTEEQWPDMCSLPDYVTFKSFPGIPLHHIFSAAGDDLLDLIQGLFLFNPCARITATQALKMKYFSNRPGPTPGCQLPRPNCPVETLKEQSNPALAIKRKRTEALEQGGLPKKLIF

Set 1 — Change: E174T; method: DHFR PCA, deep sequencing; sample: yeast; baseline: wild-type fitted maximum; direction: higher = stronger binding; measurement: relative binding score
Target: ABI1, truncated, D143A, DHFR fusion (Arabidopsis thaliana)
Notes: methotrexate growth selection, single substitutions
Starting sequence: PYL1, truncated, DHFR fusion (Arabidopsis thaliana); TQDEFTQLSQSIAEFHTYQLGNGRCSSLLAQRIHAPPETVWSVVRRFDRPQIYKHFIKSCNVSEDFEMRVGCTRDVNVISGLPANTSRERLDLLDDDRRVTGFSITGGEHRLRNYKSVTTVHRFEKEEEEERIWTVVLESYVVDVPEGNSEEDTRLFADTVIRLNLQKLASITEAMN
added = (+)-ABA 0 µM; result = -0.695%
added = (+)-ABA 1.4 µM; result = 16.5%
added = (+)-ABA 17 µM; result = 67.3%
added = (+)-ABA 0.032 µM; result = 0.546%
added = (+)-ABA 4.8 µM; result = 38.4%
added = (+)-ABA 58 µM; result = 71%

Set 2 — observed: cell-free assay; method: competition with immobilised ligand; tested at: 1 µM; measurement: remaining binding
Structure (SMILES): C[C@H](c1cccc(C#N)c1)n1cc(Cl)cc(C(N)=O)c1=N
target = Tyrosine-protein kinase ABL1, non-phosphorylated (ABL1, Homo sapiens, UniProt P00519, T315I); result = 92%
target = EGFR (Homo sapiens, UniProt P00533, L861Q); result = 100%
target = EGFR (Homo sapiens, UniProt P00533, del746-750); result = 75%
target = MAP3K9 (Homo sapiens, UniProt P80192); result = 95%
target = PLK4 (Homo sapiens, UniProt O00444); result = 100%
target = FLT3 (Homo sapiens, UniProt P36888, D835V); result = 89%
target = KIT (Homo sapiens, UniProt P10721, V559D/V654A); result = 96%
target = TAOK3 (Homo sapiens, UniProt Q9H2K8); result = 67%
target = CDK7 (Homo sapiens, UniProt P50613); result = 78%
target = FGFR1 (Homo sapiens, UniProt P11362); result = 95%
target = DDR2 (Homo sapiens, UniProt Q16832); result = 100%
target = CDKL2 (Homo sapiens, UniProt Q92772); result = 100%
target = Ribosomal protein S6 kinase alpha-3, N-terminal kinase domain (RPS6KA3, Homo sapiens, UniProt P51812); result = 95%
target = ULK3 (Homo sapiens, UniProt Q6PHR2); result = 64%
target = AKT3 (Homo sapiens, UniProt Q9Y243); result = 100%
target = EGFR (Homo sapiens, UniProt P00533, A750P/del747-749); result = 78%

Set 3 — observed: enzyme activity; mode: inhibitor; tested at: 0.5 µM; baseline: control; measurement: remaining activity
Structure (SMILES): O=Nc1c(-c2c(O)[nH]c3cc(Br)ccc23)[nH]c2ccccc12
target = SRPK1 (Homo sapiens, UniProt Q96SB4); result = 94.9%
target = MUSK (Homo sapiens, UniProt O15146); result = 84.5%
target = MAP3K20 (Homo sapiens, UniProt Q9NYL2); result = 69%
target = TEC (Homo sapiens, UniProt P42680); result = 104%
target = CLK2 (Homo sapiens, UniProt P49760); result = 91.9%
target = Cyclin-dependent kinase 2, with cyclin E (CDK2, Homo sapiens, UniProt P24941); result = 15.4%
target = PRKCZ (Homo sapiens, UniProt Q05513); result = 100%
target = SGK2 (Homo sapiens, UniProt Q9HBY8); result = 73%
target = TYRO3 (Homo sapiens, UniProt Q06418); result = 81.6%
target = CSNK1D (Homo sapiens, UniProt P48730); result = 85.4%
target = PAK6 (Homo sapiens, UniProt Q9NQU5); result = 86.3%
target = SIK2 (Homo sapiens, UniProt Q9H0K1); result = 31.1%
target = RPS6KA3 (Homo sapiens, UniProt P51812); result = 65.7%
target = CAMKK1 (Homo sapiens, UniProt Q8N5S9); result = 50.5%
target = PRKCQ (Homo sapiens, UniProt Q04759); result = 105%

Mixed results — method: cross-linking MS; notes: hits only
Molecule = AP2B1 (Homo sapiens, UniProt P63010); partner = AP2M1 (Homo sapiens, UniProt Q96CW1); interaction screen = cross-linked
Molecule = SNRPA1 (Homo sapiens, UniProt P09661); partner = SF3A3 (Homo sapiens, UniProt Q12874); interaction screen = cross-linked
Molecule = PRDX2 (Homo sapiens, UniProt P32119); partner = PRDX1 (Homo sapiens, UniProt Q06830); interaction screen = cross-linked
Molecule = REV3L (Homo sapiens, UniProt O60673); partner = H1-4 (Homo sapiens, UniProt P10412); interaction screen = cross-linked

Repeated from above (set 3):
target = CAMKK1 (Homo sapiens, UniProt Q8N5S9); result = 50.5%
target = RPS6KA3 (Homo sapiens, UniProt P51812); result = 65.7%
target = PRKCZ (Homo sapiens, UniProt Q05513); result = 100%
target = MUSK (Homo sapiens, UniProt O15146); result = 84.5%
target = CSNK1D (Homo sapiens, UniProt P48730); result = 85.4%
target = SRPK1 (Homo sapiens, UniProt Q96SB4); result = 94.9%
